Results of several laboratories.
Every numbered part comes from another study and shows a few of its results, in no order.

Study 1
Target: RING finger protein unkempt homolog, zinc fingers 1-6, GST-SBP tag (UNK, Homo sapiens, UniProt Q9C0B0, residues 30-357)
Sequence of UniProt Q9C0B0 (30-357, looked up): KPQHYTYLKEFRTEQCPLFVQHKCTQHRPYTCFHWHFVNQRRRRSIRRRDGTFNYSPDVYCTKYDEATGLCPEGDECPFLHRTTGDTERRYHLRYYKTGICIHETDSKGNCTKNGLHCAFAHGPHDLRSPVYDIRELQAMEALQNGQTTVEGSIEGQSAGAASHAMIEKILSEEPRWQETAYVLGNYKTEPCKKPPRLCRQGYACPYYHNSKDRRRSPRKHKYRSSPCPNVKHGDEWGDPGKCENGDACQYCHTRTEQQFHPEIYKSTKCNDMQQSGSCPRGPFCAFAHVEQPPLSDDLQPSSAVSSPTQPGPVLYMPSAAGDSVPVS
Technique: RNA Bind-n-Seq
Form: RNA
Sample: in vitro
Concentration: not given
Notes: RNA with constant flanks, human and mouse sites, ends assumed
Relative to: input RNA pool
Reading: higher = stronger binding
Measurement: bound/input enrichment
Constant ends, left off below: GGGAGUUCUACAGUCCGACGAUC … CAACAGAGGAUUGAGCAUCA
Sequence = AUUGCAACAAAUGGAGAAAGUGCUGUGGUACAAUUACCAAAAAAUGGCCCAAUUUAUGAUGUAGUUUGGAAUUCCAGUUCUACUGAGUUUUGCGCUGUUUAUGGUUUUAUGCCUGCGAAA; value = 0.108 ratio
Sequence = ACAUCAGCGAACUCAUGCAGGGGAAAAGCCUUAUGGGUGCAGUGAAUGUGGGAAAGCUUUUAGCAGCAAGUCAUACCUAAUUAUACACAUGAGAACUCAUUCAGGUGAAAAACCAUAUGA; value = 0.183 ratio
Sequence = AUCUAUACAACCAUCAACGCCCACCAGUGGUCAGAGACUGUGCAGCCAAUCAUGGAAGCCCUUAGAGAUGCAACAAGGAGACGCGCCUUUGCCCUGGUCUCUCAAGCUUAUACCUCCAUC; value = 0.296 ratio
Sequence = GGAGCCAGGAUUGUUGGUCAUUUGACUCAUGCCUUGAAGCAAGGAGAAUACGGUCUUGCCAGUAUUUGCAAUGGAGGAGGAGGUGCUUCUGCCAUGCUAAUUCAGAAGCUGUAGACAACC; value = 0.203 ratio
Sequence = GCAUUUGUAGAAGGAGUGGUUAAGAAAGUAGCUCAAUACAUGGCUGAUGUAUUGGAAGAUAGCAAAGACAAAGUUCAAGAGAAUCUGUUGGCUAAUGGAGUGGACUUGGUUACUUAUAUA; value = 1.24 ratio
Sequence = UAAUUUUGGCAGGAGUUAGAAUAAAUCCUUGGAGCCUGGGCCCCUCUGUCCUUGGCCCUCCAUAGCCUUCUCGCUAGAGGGGGAAAGAAGGUUCUCGGGCCGGCCCCACUACCAAGCAUA; value = 0.159 ratio
Sequence = UUUUGCAAUGUAGAUGAUGAUGAAUUAAGAGAGUACUGUAUUCAAGCCUUUGAAUCAUUUGUAAGAAGAUGUCCUAAGGAAGUAUAUCCUCAUGUUUCUACCAUUAUAAAUAUUUGUCUU; value = 0.34 ratio
Sequence = ACGCAGGAAGAAGUGUCUUCAGAAGAUGAAGAUGAAGAGAUGCCUGAGGAUACAGAAGACCUAGAUCACUAUGAAAUGAAAGAGGAAGAGCCAGCCGAGGGCAAGAAGUCUGAAGAUGAU; value = 0.856 ratio
Sequence = ACUAACAAAAGUGCCUCAUGAUAAAAGUACAUUUGAUUUUUAGGGUGCCAUAUUGUUAAAAUUAGAAAAUUGAAUAAAUGAAUGCAUUUUAUCAGUAACAAGUUUCCUUCCAUUUACCAG; value = 3.45 ratio
Sequence = GUACUUUUAUCAAGGUUUCUCAAAACAUUUACAAAACCAGCUUUGAGAAAAUGUUAUGUUGCCUGGCAACAGCACUCGGAGUAGUAAUUGUGUUUUCUCAUUGUGAUGUUGGUCUGUGUG; value = 0.528 ratio
Sequence = UGCAUGCUGCUGUUUGUGUUUGGCUUUGUUGGCGGGGCGGUGGUCAUUAAUUCUGCUAUCUUAGUAUCUCUCUCUGUUUUGCUGCUUGUGCACUUUUCUAUUUCUACCGGUGUGCCAGCU; value = 0.985 ratio

Study 2
Target: Histone acetyltransferase KAT6A, both winged helices, GST fusion (KAT6A, Homo sapiens, UniProt Q92794, residues 1-181)
Technique: protein binding microarray
Form: double-stranded DNA, one strand shown
Sample: in vitro
Concentration: not given
Notes: 8-mer, flanks averaged, mean of 2 arrays, mostly near background
Relative to: not given
Reading: higher = stronger binding
Measurement: E-score
Construct (chain): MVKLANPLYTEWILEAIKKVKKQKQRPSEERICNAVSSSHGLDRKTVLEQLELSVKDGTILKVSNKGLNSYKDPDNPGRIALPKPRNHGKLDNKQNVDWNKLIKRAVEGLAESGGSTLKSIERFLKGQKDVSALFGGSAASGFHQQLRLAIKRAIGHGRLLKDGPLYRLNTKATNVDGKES
Sequence = AAGGTGCT; value = -0.221
Sequence = GCGGGTAC; value = 0.187
Sequence = CGCCGCCC; value = 0.284
Sequence = CACGGATC; value = 0.201
Sequence = ACTCCAAA; value = -0.161
Sequence = AGCACGTG; value = -0.0222
Sequence = ATCTATGG; value = -0.182
Sequence = ACGAAGTG; value = -0.0288
Sequence = GTATGAAC; value = 0.0564
Sequence = CAGCAGGA; value = -0.247
Sequence = GACTGGTA; value = 0.0787
Sequence = ACTTTGGA; value = -0.0625
Sequence = ACATGACC; value = -0.0124
Sequence = TCAAGCCA; value = -0.0144
Sequence = TCGTCAAA; value = -0.027
Sequence = CGAGTCAG; value = 0.0347
Sequence = ACGGGGCG; value = 0.17
Sequence = GGGCCAAA; value = 0.108
Sequence = ATAATGCC; value = 0.0304
Sequence = CCGTGCAA; value = 0.135

Study 3
Target: RNA binding protein fox-1 homolog 2, RRM domain, GST-SBP tag (RBFOX2, Homo sapiens, UniProt O43251-10, residues 100-194)
Technique: RNA Bind-n-Seq
Form: RNA
Sample: in vitro
Concentration: 365 nM
Notes: natural RNA segment, single round, ends assumed
Relative to: no-protein control
Reading: higher = stronger binding
Measurement: RBNS enrichment (R)
Constant ends, left off below: GGGAGUUCUACAGUCCGACGAUC … UGGAAUUCUCGGGUGCCAA
Construct (chain): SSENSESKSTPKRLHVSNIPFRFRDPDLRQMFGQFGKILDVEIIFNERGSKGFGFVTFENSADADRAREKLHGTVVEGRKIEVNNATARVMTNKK
Sequence = GAGUGCUUUCUGUUUUUGUCAGAAAUGACCUUUCCUAUUAGAAAAUGCCCUGUCUGCUUGUCACCCUCUGAAUCUUCUUGAGCUACAGGUAGUGUUUUCAGUACCAUCAU; value = 0.268
Sequence = AAAAGAAAUCUUUACUUUCCUUGUUUUAUCAUUAUAAAAAUAAAGUAUUUUGCUAGUAUGGAAACAACCUUUGUAUUUGACGUCACCUGGGGUCUGCUGGCAGAAGUUUG; value = 0.555
Sequence = GGUGAGCUCCACAAAUGAGGGCUCCCCAUCCCCACCAGAGCCGACUGGCAAGGGCAGCCUAGACACCAUGCUGGGGCUGCUGCAGUCCGACCUCAGCCGCCGGGGUGUUC; value = 0.284
Sequence = GUGAAGGCAGGGCAGGUACACUGAGUCUGGAAGCUCUGGGUGAGGCUCGGAGCUUGAAGCUCUUUGAUCCUGAAGUUUGAAUUCCCCUCUGCCUCCCGGCCUGGGCUUGU; value = 0.596
Sequence = UCACUCUGUAGACCAGGCUGGCCUUGAACUCAGAAAUCUGCCUGCCUUUGCCUCCCAAGUGCUGGGACUAAAGGUGUGUGCCACCACUGUCCAGCUUGUGACCAGCCUUU; value = 0.817
Sequence = GACCCUCCUCGGAGCGUCCAGAUCCCCUCCUGCUCUGCUCUAUUACCUACUAGUGGUCCCUGGCAGCUGUGGGCAAGGCCUGGGUAGUCAGACUGUUAACACCACAGUCC; value = 0.216
Sequence = UCUUGGGCGUUACAGCCUUUGUCUUUUUCUUUAGUCACCUUAAUACCCAGUCCUAUGCUGUAUCUCUGAUAGCCUAUAUAAAUGACAUAUAGGAAUAUUAUUUUCCAUAU; value = 0.584
Sequence = CUGCUGUCACAGGCUGACACCUUACAGAUGUCCUGACCAUGGGUGACCCUCCUCGGAGCGUCCAGAUCCCCUCCUGCUCUGCUCUAUUACCUACUAGUGGUCCCUGGCAG; value = 0.511
Sequence = UUCACUAUUUGGUUUAAUGUCAGGUCUGCUGGGGGUAAUGGUGGCCAAGAUCUCAAACUAGGGCUUCCGUCUGUGAUGAGGACGCCUCUGAAGAAAUCUCAAGCUCCCAA; value = 0.579
Sequence = GAUUAUCAUCUUGUGAGAAGAGAUGUUUAAACGUGGUAAAUCACUUCAUAUUACAAAACAGUUUUACACUUAAUAUGUUAACAUUGGGUGCAAUAAUUUAGUAGCAUUAG; value = 0.344
Sequence = AUAGCCAAAAGUCCAUACACCCAUUGCCAGGCACUCCCAUAAGUCACAUGUGAAUUUUCUCUACACAUAGCAAACAUAACUUCAUUUGGCUCUAAGUGUCUGAGGAAUGG; value = 0.548
Sequence = CAAGUAAUGACACACUACUAUUAUUAUUACCUAAGUAGUGCUCAUCCUCUCUUUCUGUGUUUUCUUAGGAUGUGCACUUUAAUUUAGGAUUGUAACGCCUAAUAAUAUUU; value = 0.446

Study 4
Target: Ras GTPase-activating protein-binding protein 1, full length (G3BP1, Homo sapiens, UniProt Q13283)
Sequence of UniProt Q13283 (whole entry, looked up): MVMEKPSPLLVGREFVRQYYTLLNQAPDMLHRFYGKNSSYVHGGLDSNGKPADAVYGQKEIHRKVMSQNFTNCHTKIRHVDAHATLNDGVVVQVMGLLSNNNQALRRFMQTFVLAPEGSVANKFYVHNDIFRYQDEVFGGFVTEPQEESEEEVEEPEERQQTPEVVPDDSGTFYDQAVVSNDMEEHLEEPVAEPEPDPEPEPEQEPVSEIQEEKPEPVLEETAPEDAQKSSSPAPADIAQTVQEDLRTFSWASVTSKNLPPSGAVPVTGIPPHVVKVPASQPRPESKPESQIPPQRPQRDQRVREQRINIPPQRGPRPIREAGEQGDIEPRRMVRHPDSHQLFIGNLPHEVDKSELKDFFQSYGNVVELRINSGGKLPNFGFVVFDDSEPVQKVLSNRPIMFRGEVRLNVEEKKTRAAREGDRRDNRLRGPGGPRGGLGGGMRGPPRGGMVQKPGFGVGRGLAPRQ
Technique: RNA Bind-n-Seq
Form: RNA
Sample: in vitro
Concentration: 200 nM
Notes: whole 134-nt RNA, ends assumed
Together with: 150 mM LiCl
Relative to: input library
Reading: higher = stronger binding
Measurement: log2 enrichment
All molecules: 7-deaza-guanosine replaces G
Constant ends, left off below: GGGAGUUCUACAGUCCGACGAUC … UGGAAUUCUCGGGUGUCAAGG
Sequence = AGUCCUGUGCUACACAUCGUAUGUACCGAAUCGGGUGGGUUUUUUUGGGAAAAAGGGAAAGUAUUAUGUUACGCCGUUCGGAUCUGCACU; value = -0.431
Sequence = UCAAGUCCUGUGCUACACAUCGUAUGUACCGAAUCGGGUGGGAGGGUUUUUGGGAAAGUAUUAUGUUACGCCGUUCGGAUCUGCACUUCC; value = -0.627
Sequence = GGUUUCUGGUGAGCUUCAUGGUUGACGCCCGGGGUGGUUCCAUGAGAGGAAGUCGCCACAACGGCCUGCGAGUGGUGAUCCCGCCACGGA; value = -3.97
Sequence = CCUGUGCUACACAUCGUAUGUACCGAAUCGGUUUUUUUGGUUUUUUUGGGUUUUUUUGGGGAAAGUAUUAUGUUACGCCGUUCGGAUCUG; value = -0.685
Sequence = CUGUGCUACACAUCGUAUGUACCGAAUCGGGGCCCCCCCGGGCCCCCCCGGCCCCCCCGGGAAAGUAUUAUGUUACGCCGUUCGGAUCUG; value = 0.429
Sequence = AGUCCUGUGCUACACAUCGUAUGUACCGAAUCGGGGCCCCGGCCCCGGGGCCCCGGGAAAGUAUUAUGUUACGCCGUUCGGAUCUGCACU; value = -2.48
Sequence = AGUCCUGUGCUACACAUCGUAUGUACCGAAUCGGGGUUUUUGGGGUGGGGUUUGGGGAAAGUAUUAUGUUACGCCGUUCGGAUCUGCACU; value = -0.438
Sequence = CCUGUGCUACACAUCGUAUGUACCGAAUCGGGGAAAAAAGGGGAAAAAAGGGAAAAAAGGAAAGUAUUAUGUUACGCCGUUCGGAUCUGC; value = 0.581
Sequence = GCAGGAAGUAAAAACAAAUGGAAAUGCUUCGGAUAGUGGCAGGGGUGGGGGUUGCUAAGGAAAGGGUGGGAUGGGAGGGGGUAAAGAGUU; value = -0.862
Sequence = CACAGACAACACGCACCCACACAGACACAGAGGGAAGGGGUUGGGAUGGGGACAGGGUGCACAGCAGGGCGGGGUAGGACCACAGCCCCU; value = -0.307
Sequence = UCCUGUGCUACACAUCGUAUGUACCGAAUCGGGGAGGGGAAAAAGGGGAAAAAAAGGGGAAAGUAUUAUGUUACGCCGUUCGGAUCUGCA; value = 0.626
